Results gathered from unrelated publications.
Parts stem from different laboratories: compare values within a part only.
Chain of UniProt P22607 (whole entry, looked up): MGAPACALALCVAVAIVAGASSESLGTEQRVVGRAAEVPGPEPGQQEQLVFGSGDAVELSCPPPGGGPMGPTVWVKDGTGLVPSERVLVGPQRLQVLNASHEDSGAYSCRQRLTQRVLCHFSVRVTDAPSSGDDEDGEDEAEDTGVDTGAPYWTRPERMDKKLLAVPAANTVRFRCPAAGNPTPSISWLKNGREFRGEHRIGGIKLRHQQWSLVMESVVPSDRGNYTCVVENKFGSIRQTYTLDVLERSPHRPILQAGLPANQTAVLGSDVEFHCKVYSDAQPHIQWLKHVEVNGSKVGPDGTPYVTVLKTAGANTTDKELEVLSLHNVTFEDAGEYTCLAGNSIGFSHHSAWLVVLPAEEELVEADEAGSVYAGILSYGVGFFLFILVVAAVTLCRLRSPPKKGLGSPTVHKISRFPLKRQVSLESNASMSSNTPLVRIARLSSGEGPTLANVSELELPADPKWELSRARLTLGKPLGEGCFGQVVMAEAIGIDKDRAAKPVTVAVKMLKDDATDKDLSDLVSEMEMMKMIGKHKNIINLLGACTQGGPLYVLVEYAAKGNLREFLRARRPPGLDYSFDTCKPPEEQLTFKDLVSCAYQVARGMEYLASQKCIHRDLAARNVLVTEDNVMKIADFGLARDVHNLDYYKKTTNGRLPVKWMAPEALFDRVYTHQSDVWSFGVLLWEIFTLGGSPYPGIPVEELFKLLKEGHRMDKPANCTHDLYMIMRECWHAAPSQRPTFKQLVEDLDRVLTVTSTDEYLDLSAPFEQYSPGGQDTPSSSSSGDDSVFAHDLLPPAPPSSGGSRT
Chain of UniProt P50750 (whole entry, looked up): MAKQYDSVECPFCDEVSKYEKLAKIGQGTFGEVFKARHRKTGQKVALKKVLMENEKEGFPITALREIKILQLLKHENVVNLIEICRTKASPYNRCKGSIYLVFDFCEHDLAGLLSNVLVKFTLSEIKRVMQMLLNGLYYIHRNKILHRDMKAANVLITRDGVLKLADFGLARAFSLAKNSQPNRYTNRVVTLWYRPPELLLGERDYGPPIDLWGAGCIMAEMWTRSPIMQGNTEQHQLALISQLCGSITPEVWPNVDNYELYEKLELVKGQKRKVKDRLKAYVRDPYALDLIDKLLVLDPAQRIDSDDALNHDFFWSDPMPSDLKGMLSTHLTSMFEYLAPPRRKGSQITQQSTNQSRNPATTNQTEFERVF
Chain of UniProt P29320 (whole entry, looked up): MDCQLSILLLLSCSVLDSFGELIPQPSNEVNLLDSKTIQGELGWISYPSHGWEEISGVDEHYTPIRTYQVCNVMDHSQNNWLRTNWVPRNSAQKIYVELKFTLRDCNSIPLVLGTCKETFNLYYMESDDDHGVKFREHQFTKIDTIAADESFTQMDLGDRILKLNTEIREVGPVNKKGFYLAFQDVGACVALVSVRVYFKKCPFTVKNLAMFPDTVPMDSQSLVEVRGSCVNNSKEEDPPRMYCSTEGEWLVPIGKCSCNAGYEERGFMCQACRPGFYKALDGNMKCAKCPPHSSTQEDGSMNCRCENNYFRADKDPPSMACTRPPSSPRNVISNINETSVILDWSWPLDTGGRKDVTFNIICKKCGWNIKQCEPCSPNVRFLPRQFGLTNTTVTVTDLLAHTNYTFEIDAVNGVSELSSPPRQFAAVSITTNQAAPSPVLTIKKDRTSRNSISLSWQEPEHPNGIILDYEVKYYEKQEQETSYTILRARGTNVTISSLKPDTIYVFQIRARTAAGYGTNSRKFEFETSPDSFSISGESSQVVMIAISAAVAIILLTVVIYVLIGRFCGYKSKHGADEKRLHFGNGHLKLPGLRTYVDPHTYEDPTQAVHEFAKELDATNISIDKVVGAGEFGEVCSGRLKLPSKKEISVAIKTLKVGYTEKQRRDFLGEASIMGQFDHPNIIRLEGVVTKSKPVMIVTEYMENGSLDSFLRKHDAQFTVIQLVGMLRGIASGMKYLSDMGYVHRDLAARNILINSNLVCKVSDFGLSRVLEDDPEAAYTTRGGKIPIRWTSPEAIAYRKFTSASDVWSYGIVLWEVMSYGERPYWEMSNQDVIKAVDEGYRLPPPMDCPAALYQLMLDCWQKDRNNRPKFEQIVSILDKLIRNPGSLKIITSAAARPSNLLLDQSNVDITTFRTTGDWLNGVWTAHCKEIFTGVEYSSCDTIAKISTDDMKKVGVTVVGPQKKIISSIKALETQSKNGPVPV
Chain of UniProt Q15418 (whole entry, looked up): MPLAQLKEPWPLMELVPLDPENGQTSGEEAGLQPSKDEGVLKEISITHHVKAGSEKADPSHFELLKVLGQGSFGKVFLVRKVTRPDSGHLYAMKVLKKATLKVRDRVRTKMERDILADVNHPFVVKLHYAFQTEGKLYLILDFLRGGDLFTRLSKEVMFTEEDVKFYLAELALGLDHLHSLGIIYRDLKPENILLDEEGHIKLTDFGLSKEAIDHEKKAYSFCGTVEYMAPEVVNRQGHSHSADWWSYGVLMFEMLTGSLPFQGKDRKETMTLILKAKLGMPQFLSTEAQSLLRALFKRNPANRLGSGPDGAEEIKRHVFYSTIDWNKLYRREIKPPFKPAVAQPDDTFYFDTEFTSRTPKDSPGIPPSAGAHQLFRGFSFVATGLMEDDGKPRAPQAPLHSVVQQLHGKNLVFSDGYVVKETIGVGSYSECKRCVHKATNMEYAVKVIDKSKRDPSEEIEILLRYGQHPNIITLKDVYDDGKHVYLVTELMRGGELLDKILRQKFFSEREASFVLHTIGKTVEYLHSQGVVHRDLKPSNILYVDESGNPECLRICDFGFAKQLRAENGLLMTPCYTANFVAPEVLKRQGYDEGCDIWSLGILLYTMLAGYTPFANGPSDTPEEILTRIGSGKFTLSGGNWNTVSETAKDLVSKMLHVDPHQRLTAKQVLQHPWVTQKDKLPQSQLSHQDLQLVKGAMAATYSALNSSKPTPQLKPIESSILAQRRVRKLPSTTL
Chain of UniProt P27361 (whole entry, looked up): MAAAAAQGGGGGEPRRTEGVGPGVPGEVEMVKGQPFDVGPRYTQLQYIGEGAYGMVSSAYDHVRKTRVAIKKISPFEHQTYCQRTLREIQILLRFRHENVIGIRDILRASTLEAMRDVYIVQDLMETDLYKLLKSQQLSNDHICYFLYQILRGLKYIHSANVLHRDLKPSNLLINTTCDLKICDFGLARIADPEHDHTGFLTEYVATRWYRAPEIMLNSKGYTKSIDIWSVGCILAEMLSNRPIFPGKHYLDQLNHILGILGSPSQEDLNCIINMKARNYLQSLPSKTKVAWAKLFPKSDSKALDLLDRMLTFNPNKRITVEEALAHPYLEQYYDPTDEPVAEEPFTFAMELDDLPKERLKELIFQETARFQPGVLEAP
Chain of UniProt P42679 (whole entry, looked up): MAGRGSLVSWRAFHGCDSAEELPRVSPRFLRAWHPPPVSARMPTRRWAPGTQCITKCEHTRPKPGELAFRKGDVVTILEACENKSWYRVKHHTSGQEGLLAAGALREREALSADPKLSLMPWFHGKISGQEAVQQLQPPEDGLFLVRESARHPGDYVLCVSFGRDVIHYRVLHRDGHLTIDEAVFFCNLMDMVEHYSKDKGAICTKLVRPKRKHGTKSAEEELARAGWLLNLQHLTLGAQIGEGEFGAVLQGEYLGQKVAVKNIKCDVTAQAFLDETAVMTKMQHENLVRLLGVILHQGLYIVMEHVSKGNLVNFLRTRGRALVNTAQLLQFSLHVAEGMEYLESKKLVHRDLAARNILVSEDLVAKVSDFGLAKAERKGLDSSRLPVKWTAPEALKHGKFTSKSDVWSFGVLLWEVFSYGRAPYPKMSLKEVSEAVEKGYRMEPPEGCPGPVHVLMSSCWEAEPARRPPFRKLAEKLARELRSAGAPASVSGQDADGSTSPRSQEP
Chain of UniProt P06239 (whole entry, looked up): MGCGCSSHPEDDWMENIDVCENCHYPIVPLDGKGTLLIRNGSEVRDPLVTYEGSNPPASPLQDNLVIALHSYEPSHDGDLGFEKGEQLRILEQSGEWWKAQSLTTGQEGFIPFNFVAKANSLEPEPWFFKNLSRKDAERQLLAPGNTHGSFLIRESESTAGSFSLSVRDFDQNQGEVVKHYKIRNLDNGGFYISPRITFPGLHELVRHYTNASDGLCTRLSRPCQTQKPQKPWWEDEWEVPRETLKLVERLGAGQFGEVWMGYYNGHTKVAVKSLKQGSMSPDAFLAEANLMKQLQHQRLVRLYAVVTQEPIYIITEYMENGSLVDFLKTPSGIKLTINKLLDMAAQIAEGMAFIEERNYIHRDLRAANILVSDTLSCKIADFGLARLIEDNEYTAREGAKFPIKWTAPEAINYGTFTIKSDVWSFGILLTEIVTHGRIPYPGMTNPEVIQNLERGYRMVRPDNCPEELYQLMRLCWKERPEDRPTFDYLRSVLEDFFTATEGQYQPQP
Chain of UniProt P53350 (whole entry, looked up): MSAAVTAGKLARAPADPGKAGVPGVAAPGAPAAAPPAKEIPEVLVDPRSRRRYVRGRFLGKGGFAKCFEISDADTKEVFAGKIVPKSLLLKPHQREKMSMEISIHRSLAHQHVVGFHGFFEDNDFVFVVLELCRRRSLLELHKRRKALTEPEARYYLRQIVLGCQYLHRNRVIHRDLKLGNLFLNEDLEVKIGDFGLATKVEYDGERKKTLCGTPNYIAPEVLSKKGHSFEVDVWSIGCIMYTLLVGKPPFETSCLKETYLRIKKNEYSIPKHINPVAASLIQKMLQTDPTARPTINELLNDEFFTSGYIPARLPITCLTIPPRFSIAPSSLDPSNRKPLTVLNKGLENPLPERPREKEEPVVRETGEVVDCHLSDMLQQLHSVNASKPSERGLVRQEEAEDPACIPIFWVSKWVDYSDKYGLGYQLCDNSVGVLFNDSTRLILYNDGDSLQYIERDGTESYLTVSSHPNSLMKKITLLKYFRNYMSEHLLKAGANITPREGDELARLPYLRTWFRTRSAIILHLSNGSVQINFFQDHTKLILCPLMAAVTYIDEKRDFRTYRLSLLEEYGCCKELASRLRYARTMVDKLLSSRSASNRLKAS

Sample 1
SMILES: C[C@H](c1ccnc(Nc2nc3ccc(-c4cc(N(C)C)ncn4)cc3[nH]2)c1)N1CCN(C(=O)CC(F)(F)F)CC1
Read-out: cell-free assay
Method: competition with immobilised ligand
Concentration: 0.1 µM
Endpoint: remaining binding
Cyclin-dependent kinase 9 (CDK9, Homo sapiens, UniProt P50750): 100%
Epidermal growth factor receptor (EGFR, Homo sapiens, UniProt P00533, del746-750): 96%
Bone morphogenetic protein receptor type-2 (BMPR2, Homo sapiens, UniProt Q13873): 100%
Ribosomal protein S6 kinase alpha-1, N-terminal kinase domain (RPS6KA1, Homo sapiens, UniProt Q15418): 100%
Dual serine/threonine and tyrosine protein kinase (DSTYK, Homo sapiens, UniProt Q6XUX3): 100%
Epidermal growth factor receptor (EGFR, Homo sapiens, UniProt P00533, del752-759): 96%
Receptor tyrosine-protein kinase erbB-4 (ERBB4, Homo sapiens, UniProt Q15303): 96%
Megakaryocyte-associated tyrosine-protein kinase (MATK, Homo sapiens, UniProt P42679): 95%
Serine/threonine-protein kinase PLK1 (PLK1, Homo sapiens, UniProt P53350): 100%

Sample 2
Structure (SMILES): CN([C@@H](Cc1ccc(OS(=O)(=O)c2cccc3cnccc23)cc1)C(=O)N1CCN(c2ccccc2)CC1)S(=O)(=O)c1cccc2cnccc12
Read-out: enzyme activity
Action: inhibitor
Concentration: 0.5 µM
Reference: control
Endpoint: remaining activity
Rhodopsin kinase GRK7 (GRK7, Homo sapiens, UniProt Q8WTQ7): 105%
Glycogen synthase kinase-3 beta (GSK3B, Homo sapiens, UniProt P49841): 96.6%
Fibroblast growth factor receptor 3 (FGFR3, Homo sapiens, UniProt P22607): 98.8%
Wee1-like protein kinase (WEE1, Homo sapiens, UniProt P30291): 87.7%
Tyrosine-protein kinase Lck (LCK, Homo sapiens, UniProt P06239): 97.5%
Serine/threonine-protein kinase TBK1 (TBK1, Homo sapiens, UniProt Q9UHD2): 101%
Mitogen-activated protein kinase kinase kinase 14 (MAP3K14, Homo sapiens, UniProt Q99558): 90.7%
Serine/threonine-protein kinase ULK2 (ULK2, Homo sapiens, UniProt Q8IYT8): 106%
Serine/threonine-protein kinase Nek6 (NEK6, Homo sapiens, UniProt Q9HC98): 101%
Mitogen-activated protein kinase 3 (MAPK3, Homo sapiens, UniProt P27361): 90.6%
Macrophage-stimulating protein receptor (MST1R, Homo sapiens, UniProt Q04912): 94.4%
Mitogen-activated protein kinase kinase kinase 5 (MAP3K5, Homo sapiens, UniProt Q99683): 99.2%
Ephrin type-A receptor 3 (EPHA3, Homo sapiens, UniProt P29320): 102%

Sample 3
Target: PABPC1L2, full length, GST fusion (mouse, UniProt A0ABA7IW68)
Method: RNAcompete
Form: RNA
Matrix: in vitro
Concentration: 20 nM
Setting: 7-mer, probes averaged, single round
Reference: mean of 7-mers
Reading: higher = stronger binding
Endpoint: 7-mer Z-score
Target sequence (chain): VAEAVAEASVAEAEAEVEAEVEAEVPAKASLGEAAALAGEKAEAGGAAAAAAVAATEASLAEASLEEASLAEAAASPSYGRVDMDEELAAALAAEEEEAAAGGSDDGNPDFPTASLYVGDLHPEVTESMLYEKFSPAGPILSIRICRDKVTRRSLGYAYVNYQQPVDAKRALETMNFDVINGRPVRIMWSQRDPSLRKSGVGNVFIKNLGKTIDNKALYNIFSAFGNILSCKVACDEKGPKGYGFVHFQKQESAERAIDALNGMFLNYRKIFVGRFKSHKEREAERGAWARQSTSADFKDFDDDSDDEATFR
AAUGUAU: 0.1
UAUGUUU: -0.407
UUUCGGG: -0.188
UCUUGCG: -0.291
AUCAAGU: -0.0609
CCGUACG: -0.304
UCUGCUG: -0.378
CAACUCG: -0.113

Mixed results
LAMP5 (Homo sapiens, UniProt Q9UJQ1) — cross-linked residues (TCAF1 (Homo sapiens, UniProt Q9Y4C2); cross-linking MS; cells; with: BSPNO): M1 to K140
